Measured values collected from several papers.
Lines come from different studies, so protocols differ. Values joined by “and” are separate records of one study, mostly repeats; a detail may differ. Numbers after ± are the reported error.
NR4A1: Nuclear receptor subfamily 4 group A member 1 (NR4A1, Homo sapiens, UniProt P22736)
UniProt P22736, sequence (whole entry, looked up): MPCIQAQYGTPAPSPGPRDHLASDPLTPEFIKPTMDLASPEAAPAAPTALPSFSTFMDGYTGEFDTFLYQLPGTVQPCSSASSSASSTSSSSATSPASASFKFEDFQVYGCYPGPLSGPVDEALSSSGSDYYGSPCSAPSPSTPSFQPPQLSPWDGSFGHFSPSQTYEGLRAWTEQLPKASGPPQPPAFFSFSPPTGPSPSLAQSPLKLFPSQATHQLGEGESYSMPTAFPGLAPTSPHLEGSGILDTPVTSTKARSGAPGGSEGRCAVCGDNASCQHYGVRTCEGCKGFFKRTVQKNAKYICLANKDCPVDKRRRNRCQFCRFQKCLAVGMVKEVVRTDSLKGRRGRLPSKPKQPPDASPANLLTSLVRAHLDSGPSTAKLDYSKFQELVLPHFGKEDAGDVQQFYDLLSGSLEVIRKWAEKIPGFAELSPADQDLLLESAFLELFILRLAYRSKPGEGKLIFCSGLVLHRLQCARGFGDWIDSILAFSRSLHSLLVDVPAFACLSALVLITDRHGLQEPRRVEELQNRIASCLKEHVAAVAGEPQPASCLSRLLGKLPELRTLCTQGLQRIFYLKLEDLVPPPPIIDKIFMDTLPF
Tumor necrosis factor receptor superfamily member 9/Nectin-4: Tumor necrosis factor receptor superfamily member 9/Nectin-4 (Homo sapiens, UniProt Q07011+Q96NY8)
UniProt Q96NY8, sequence (whole entry, looked up): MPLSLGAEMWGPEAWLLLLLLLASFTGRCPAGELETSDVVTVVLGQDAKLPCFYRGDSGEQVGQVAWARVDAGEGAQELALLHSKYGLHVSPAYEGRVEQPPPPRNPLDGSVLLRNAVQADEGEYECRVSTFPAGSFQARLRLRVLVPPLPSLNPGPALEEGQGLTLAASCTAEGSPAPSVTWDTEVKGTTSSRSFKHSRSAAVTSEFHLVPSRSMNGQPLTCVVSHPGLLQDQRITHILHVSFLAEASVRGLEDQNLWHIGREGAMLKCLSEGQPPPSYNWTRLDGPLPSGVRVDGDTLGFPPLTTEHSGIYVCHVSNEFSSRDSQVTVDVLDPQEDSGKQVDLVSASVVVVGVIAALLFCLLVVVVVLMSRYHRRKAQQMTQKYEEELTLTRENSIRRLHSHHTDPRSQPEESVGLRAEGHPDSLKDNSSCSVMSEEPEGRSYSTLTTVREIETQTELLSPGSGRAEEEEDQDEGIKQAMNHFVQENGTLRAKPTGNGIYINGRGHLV
HTR2B: 5-hydroxytryptamine receptor 2B (HTR2B, Homo sapiens, UniProt P41595)
UniProt P41595, sequence (whole entry, looked up): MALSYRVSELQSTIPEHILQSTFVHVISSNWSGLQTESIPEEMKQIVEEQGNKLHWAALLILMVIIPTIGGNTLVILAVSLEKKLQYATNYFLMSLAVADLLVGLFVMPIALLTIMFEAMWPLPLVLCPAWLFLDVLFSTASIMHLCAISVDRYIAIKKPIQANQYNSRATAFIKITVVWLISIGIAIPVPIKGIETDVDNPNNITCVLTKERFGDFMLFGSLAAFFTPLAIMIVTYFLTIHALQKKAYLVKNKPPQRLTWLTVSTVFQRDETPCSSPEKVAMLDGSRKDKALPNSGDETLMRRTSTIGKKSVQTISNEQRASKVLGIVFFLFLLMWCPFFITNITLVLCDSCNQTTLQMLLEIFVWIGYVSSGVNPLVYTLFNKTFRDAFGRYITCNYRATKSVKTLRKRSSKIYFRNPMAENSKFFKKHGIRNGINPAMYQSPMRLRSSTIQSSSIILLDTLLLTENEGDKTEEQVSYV
T1: ssDNA, aptamer; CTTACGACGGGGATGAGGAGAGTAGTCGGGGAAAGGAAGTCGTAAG
UniProt Q16774, sequence (whole entry, looked up): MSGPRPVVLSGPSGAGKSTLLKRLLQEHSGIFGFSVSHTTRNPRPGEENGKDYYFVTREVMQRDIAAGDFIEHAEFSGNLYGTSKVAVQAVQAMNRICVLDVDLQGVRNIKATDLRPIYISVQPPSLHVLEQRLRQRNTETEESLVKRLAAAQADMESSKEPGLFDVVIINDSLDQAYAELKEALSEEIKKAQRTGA
UniProt O75762, sequence (whole entry, looked up): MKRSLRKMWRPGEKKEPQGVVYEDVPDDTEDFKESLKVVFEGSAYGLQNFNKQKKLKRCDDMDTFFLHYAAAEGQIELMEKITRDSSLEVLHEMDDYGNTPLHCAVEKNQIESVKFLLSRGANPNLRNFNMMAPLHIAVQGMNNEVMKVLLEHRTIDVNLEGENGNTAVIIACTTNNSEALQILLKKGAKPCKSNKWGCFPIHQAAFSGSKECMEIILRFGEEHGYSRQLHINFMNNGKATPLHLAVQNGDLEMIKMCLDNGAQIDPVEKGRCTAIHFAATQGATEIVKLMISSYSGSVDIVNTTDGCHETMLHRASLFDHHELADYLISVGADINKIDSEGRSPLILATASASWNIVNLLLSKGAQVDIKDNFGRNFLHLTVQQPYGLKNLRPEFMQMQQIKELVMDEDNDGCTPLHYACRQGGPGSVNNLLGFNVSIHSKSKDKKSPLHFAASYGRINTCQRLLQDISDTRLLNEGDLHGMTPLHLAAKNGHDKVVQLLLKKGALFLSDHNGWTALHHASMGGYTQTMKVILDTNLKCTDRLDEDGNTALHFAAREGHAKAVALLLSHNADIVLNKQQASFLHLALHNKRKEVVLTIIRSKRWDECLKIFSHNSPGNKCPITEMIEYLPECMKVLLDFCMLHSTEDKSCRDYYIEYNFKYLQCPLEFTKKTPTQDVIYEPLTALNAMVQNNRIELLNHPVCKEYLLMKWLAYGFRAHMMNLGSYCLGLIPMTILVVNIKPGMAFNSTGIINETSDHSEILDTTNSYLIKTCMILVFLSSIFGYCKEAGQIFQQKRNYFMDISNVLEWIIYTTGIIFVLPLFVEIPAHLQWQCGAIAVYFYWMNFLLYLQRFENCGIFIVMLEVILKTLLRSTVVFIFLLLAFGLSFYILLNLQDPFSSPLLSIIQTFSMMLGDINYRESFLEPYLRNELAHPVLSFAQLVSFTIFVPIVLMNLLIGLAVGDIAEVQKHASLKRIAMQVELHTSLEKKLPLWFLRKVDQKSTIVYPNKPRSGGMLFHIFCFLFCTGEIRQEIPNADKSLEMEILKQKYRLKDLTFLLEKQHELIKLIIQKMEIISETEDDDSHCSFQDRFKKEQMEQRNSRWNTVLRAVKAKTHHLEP
UniProt P51575, sequence (whole entry, unmodified, looked up): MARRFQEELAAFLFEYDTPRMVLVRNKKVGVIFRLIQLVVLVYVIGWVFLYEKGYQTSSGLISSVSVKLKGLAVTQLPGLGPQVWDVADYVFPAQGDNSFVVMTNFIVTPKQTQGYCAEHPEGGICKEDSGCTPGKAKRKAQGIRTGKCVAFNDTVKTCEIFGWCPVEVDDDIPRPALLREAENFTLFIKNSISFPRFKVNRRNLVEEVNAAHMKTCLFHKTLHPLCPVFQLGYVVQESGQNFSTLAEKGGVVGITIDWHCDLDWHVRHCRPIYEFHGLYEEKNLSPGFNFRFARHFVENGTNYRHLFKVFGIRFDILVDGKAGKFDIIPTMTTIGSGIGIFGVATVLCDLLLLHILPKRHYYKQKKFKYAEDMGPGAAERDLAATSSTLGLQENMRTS
UniProt Q9NYV8, sequence (whole entry, unmodified, looked up): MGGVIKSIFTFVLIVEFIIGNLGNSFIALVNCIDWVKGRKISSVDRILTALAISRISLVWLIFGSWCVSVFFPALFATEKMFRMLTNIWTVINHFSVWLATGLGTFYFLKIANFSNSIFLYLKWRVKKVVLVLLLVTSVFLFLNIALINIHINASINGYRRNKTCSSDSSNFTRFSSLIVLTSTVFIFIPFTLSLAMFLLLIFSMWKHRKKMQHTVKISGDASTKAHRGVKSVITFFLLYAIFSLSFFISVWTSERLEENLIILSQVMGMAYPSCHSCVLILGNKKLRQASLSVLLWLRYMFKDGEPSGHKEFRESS
UniProt Q8NER1, sequence (whole entry, unmodified, looked up): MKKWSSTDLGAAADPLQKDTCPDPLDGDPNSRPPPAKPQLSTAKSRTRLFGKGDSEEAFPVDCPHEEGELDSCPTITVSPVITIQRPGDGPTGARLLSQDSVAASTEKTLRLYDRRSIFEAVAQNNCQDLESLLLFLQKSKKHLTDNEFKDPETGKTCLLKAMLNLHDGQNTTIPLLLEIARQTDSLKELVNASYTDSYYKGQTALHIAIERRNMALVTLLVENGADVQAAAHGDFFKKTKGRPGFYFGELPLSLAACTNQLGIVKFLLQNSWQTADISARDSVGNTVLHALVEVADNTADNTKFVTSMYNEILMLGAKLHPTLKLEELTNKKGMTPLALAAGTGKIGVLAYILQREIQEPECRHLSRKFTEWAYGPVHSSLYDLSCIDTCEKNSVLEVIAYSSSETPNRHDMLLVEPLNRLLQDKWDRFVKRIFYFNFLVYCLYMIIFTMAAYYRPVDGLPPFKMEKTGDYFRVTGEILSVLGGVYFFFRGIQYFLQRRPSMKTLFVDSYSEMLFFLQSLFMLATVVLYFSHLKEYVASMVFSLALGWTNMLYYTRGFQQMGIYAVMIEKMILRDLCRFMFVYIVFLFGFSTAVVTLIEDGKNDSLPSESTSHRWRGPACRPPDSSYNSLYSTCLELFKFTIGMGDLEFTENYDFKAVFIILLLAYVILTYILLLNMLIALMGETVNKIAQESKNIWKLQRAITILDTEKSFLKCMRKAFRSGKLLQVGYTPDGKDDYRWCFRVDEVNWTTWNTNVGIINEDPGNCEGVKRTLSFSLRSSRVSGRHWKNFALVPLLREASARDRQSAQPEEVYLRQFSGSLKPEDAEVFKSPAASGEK
UniProt Q9UBL9, sequence (whole entry, unmodified, looked up): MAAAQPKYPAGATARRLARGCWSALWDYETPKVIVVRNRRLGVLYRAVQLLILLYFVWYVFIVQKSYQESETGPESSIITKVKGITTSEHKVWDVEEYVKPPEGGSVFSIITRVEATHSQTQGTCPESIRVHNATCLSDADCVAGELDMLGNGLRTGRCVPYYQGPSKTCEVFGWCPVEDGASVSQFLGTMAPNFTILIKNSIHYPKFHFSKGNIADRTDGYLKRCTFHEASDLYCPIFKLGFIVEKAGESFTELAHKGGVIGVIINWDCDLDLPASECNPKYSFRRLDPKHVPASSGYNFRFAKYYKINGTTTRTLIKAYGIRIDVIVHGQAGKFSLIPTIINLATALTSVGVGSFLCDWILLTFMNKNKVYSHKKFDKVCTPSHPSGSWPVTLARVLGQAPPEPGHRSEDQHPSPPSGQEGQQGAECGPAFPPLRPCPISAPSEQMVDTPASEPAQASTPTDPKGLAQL

Structure (SMILES)	tested on	assay	system	setting	scale	endpoint	result
O=c1nc(SCc2cc(F)cc(C(F)(F)F)c2)nc(SCc2ccc3sccc3c2)[nH]1	DNA topoisomerase 2-alpha (TOP2A, Homo sapiens, UniProt P11388)	DNA cleavage	–	125 µM, replicate 2	–	linear DNA	9.32%
CCN1CCN(c2cc(N3CCN(CC)CC3)nc(NCCNc3ccnc4cc(Cl)ccc34)n2)CC1	NR4A1	reporter gene, NBRE reporter full-length	–	10 µM	relative to: vehicle	activation	1.09 ± 0.18 fold
CCCC[C@@H]1NC(=O)[C@H](Cc2ccc(O)cc2)NC(=O)[C@@H]2CCCN2C(=O)[C@H](CC(=O)O)NC(=O)[C@H](C)NC(=O)[C@H](Cc2ccccc2)NC(=O)[C@@H]2CSCCC(=O)N3CN(CN(C3)C(=O)CCSC[C@@H](C(=O)N[C@@H](C)C(N)=O)NC1=O)C(=O)CCSC[C@H](NC(C)=O)C(=O)N[C@@H](CC(C)(C)C)C(=O)N1CCC[C@H]1C(=O)N[C@@H](CCCCNC(=O)CCc1cn(CC(=O)N[C@H]3CSCCC(=O)N4CN5CN(C4)C(=O)CCSC[C@H](NC(=O)[C@@H](CC(=O)O)NC(=O)[C@H](Cc4cccc6ccccc46)NC(=O)[C@@H]4CCCN4C3=O)C(=O)N[C@@H](CCSC)C(=O)N[C@@H](CCCCNC(=N)N)C(=O)N[C@@H](CC(=O)O)C(=O)N[C@@H](Cc3c[nH]c4ccccc34)C(=O)N[C@@H](CO)C(=O)N[C@@H]([C@@H](C)O)C(=O)N3CCC[C@H]3C(=O)N3C[C@H](O)C[C@H]3C(=O)N[C@@H](Cc3c[nH]c4ccccc34)C(=O)N[C@H](C(N)=O)CSCCC5=O)nn1)C(=O)N[C@H](C)C(=O)N1CCC[C@H]1C(=O)N[C@@H](Cc1ccc(O)cc1)C(=O)N2	Tumor necrosis factor receptor superfamily member 9/Nectin-4	reporter gene, agonist	HT-1376 coculture with reporter cells	–	relative to: background	Emax	42 fold
CCC1(O)CCCN(C(=O)c2ccc(-c3ccc(F)c(NC(=O)CCl)c3)cc2)C1 (stereo not drawn)	DNA dC->dU-editing enzyme APOBEC-3B, C-terminal domain (Homo sapiens, UniProt Q9UH17)	covalent adduct, intact protein MS	–	1 h, 1-fold, 25 µM	–	unmodified protein	88% and 89%
Nc1nnc(-c2cccc(Cl)c2Cl)c(N)n1	Sodium channel protein type 5 subunit alpha (SCN5A, Homo sapiens, UniProt Q14524)	sodium current block kinetics	–	25 µM	–	slow recovery time constant	15.6 s
Nc1ncnc2c1ncn2[C@@H]1O[C@H](COP(=O)(O)OP(=O)(O)OP(=O)(O)O)[C@@H](O)[C@H]1O	rep, dimer, ssDNA-bound (Escherichia coli, UniProt P09980)	substrate	–	–	–	Km	2.7 µM
Cc1ccnc(OC[C@H]2CN(CC(=O)N3CCc4ccccc43)CCO2)c1	HTR2B	radioligand binding	–	concentration not given, together with: [3H]LSD	–	inhibition	36.1%
CSc1ccc(C(=O)/C=C/c2cc(C)c(OC(C)(C)C(=O)O)c(C)c2)cc1	Peroxisome proliferator-activated receptor delta (PPARD, Homo sapiens, UniProt Q03181)	reporter gene, agonist, luciferase reporter	–	–	relative to: maximal control activation	Emax	61%
Oc1ccccc1-c1n[nH]cc1-c1ccnc2ccccc12	Serine/threonine-protein kinase SCH9 (SCH9, Candida albicans, UniProt Q5AHG6)	kinase binding, MIB/MS competition	Candida albicans lysate	1 µM	relative to: DMSO, negative = stronger binding	log2 fold change	0.04
Nc1ncnc2c1ncn2[C@@H]1O[C@H](COP(=O)(O)OP(=O)(O)O)[C@@H](O)[C@H]1O	T1, ssDNA, aptamer	ITC	–	–	–	Kd	18.3 µM
Nc1ncnc2c1ncn2[C@@H]1O[C@H](COP(=O)(O)OP(=O)(O)OP(=O)(O)O)[C@@H](O)[C@H]1O	DNA-directed RNA polymerase subunit beta' / DNA-directed RNA polymerase subunit beta (rpoC/rpoB, Escherichia coli, UniProt P0A8T7+P0A8V2)	RNA extension, rapid quench-flow	Escherichia coli, elongation complex, 6-MI template	200 µM, 25 °C, fast complex fraction	–	nucleotide addition rate	36 ± 2 s⁻¹
[Ca]	Transient receptor potential cation channel subfamily A member 1 (TRPA1, Homo sapiens, UniProt O75762)	ion current, two-electrode voltage clamp	Xenopus oocytes	concentration not given, -80 mV, together with: extracellular Ca2+	relative to: current before Ca2+ addition	potentiation	13.8 fold change and 29.1 fold change and 20.9 fold change and 6.31 fold change and 23.6 fold change
CC1CCCN(C(=O)c2cc3ncccn3n2)C1 (stereo not drawn)	FBXW7 (Homo sapiens, UniProt Q969H0)	binding, affinity selection mass spectrometry	–	–	relative to: other proteins in batch	fold enrichment	1.23
O=C1CCC(N2Cc3cc(Nc4noc5ccccc45)ccc3C2=O)C(=O)N1 (stereo not drawn)	Cereblon/Casein kinase I alpha (CSNK1A1/CRBN, Homo sapiens, UniProt P48729+Q96SW2)	degrader, live-cell HiBiT kinetic	HEK293 LgBiT	10 µM	–	degradation rate constant	3.5 h⁻¹
[O-][S+]1CCCCS1 (stereo not drawn)	Superoxide dismutase [Cu-Zn] (SOD1, Homo sapiens, UniProt P00441, G94A)	LC-MS	brain homogenate	1000 µM, 1 h, 37 °C	–	SOD1 monomer fraction	0%
Nc1ncnc2c1ncn2[C@@H]1O[C@H](COP(=O)(O)CP(=O)(O)OP(=O)(O)O)[C@@H](O)[C@H]1O	P2X purinoceptor 1 (P2RX1, Homo sapiens, UniProt P51575, F188L)	calcium influx	–	31.6 nM	relative to: ionomycin response	calcium influx	7.75% and 8.83% and 15.8%
COc1cc(CNC(=O)CCCC/C=C/C(C)C)ccc1O	Transient receptor potential cation channel subfamily V member 1 (TRPV1, Homo sapiens, UniProt Q8NER1, F496Q)	agonist, outside-out patch clamp	–	F496Q mutant	–	Hill coefficient	1.3
CCCC[C@@H]1NC(=O)[C@H](Cc2ccc(O)cc2)NC(=O)[C@@H]2CCCN2C(=O)[C@H](CC(=O)O)NC(=O)[C@H](C)NC(=O)[C@H](Cc2ccccc2)NC(=O)[C@@H]2CSCCC(=O)N3CN(CN(C3)C(=O)CCSC[C@@H](C(=O)N[C@@H](CNC(=O)CCc3cn(CCOCCOCCOCCOCCOCCOCCOCCOCCOCCOCCOCCOCCOCCOCCOCCOCCOCCOCCOCCOCCOCCOCCOCCNC(=O)N[C@H]4CSCCC(=O)N5CN6CN(C5)C(=O)CCSC[C@H](NC(=O)[C@@H](CC(=O)O)NC(=O)[C@H](Cc5cccc7ccccc57)NC(=O)[C@@H]5CCCN5C4=O)C(=O)N[C@@H](CCSC)C(=O)N[C@@H](CCCCNC(=N)N)C(=O)N[C@@H](CC(=O)O)C(=O)N[C@@H](Cc4c[nH]c5ccccc45)C(=O)N[C@@H](CO)C(=O)N[C@@H]([C@@H](C)O)C(=O)N4CCC[C@H]4C(=O)N4C[C@H](O)C[C@H]4C(=O)N[C@@H](Cc4c[nH]c5ccccc45)C(=O)N[C@H](C(N)=O)CSCCC6=O)nn3)C(N)=O)NC1=O)C(=O)CCSC[C@H](NC(=O)[C@H](C)NC(C)=O)C(=O)N[C@@H]([C@@H](C)CC)C(=O)N[C@@H](CCC(=O)O)C(=O)N[C@@H](CCC(=O)O)C(=O)NCC(=O)N[C@@H](CCC(N)=O)C(=O)N[C@@H](Cc1ccc(O)cc1)C(=O)N2	Tumor necrosis factor receptor superfamily member 9/Nectin-4	reporter gene, agonist	HT-1376 coculture with reporter cells	–	relative to: background	Emax	24 fold

Structure (SMILES)	tested on	assay	system	setting	scale	endpoint	result
O=C(CCCc1ccccc1)C(=O)NCCc1ccc(Oc2ccc(C(F)(F)F)cn2)cc1	Prolyl endopeptidase (Mus musculus, UniProt Q9QUR6)	inhibitor, refers to: PPCE	mouse, WAT cytosol proteome	10 µM	relative to: DMSO, lower = stronger inhibition	probe-enriched protein abundance	268000 a.u.
O=C(C=Cc1ccccc1)Nc1cccc(-c2ccnc(N3CCC(O)CC3)c2)c1	NR4A1	SPR	–	10.0 µM	–	binding response	71.4 RU
O=C(O)c1ccc(Nc2ncc3c(n2)-c2ccc(Cl)cc2C(c2c(F)cccc2F)=NC3)cc1	MELK(h)	kinase activity	–	1 µM	–	remaining activity	79%
CC(C)[C@@H](Nc1nc(Cl)nc2c1ncn2[C@H]1[C@H](O)[C@H](O)[C@]2(C#N)C[C@H]12)C1CC1	HTR2B	radioligand binding	–	together with: [3H]LSD	relative to: 4′-cyano over 4′-CH2OH analogue	affinity gain	7.7 fold
Cn1cc(-c2ccc(-c3cncc(Cl)c3N3CCC4(CCNC4=O)CC3)cc2)cn1	COLO 205	gene expression, microarray, refers to: SULF1 mRNA	–	concentration not given, 2 h	relative to: untreated cells	log2 fold change	2.47
O=C(COP(=O)(O)O)[C@@H](O)[C@H](O)[C@H](O)COP(=O)(O)O	Pyruvate kinase PKM (PKM, Homo sapiens, UniProt P14618)	pyruvate kinase activity, activator	MGC-803 cell lysate	without AIM	–	minimum concentration, maximal activation	252 ± 134 nM
Nc1ncnc2c1ncn2[C@@H]1O[C@H](COP(=O)(O)OP(=O)(O)OP(=O)(O)O)[C@@H](O)[C@H]1O	P2X purinoceptor 2 (P2RX2, Homo sapiens, UniProt Q9UBL9, R130E)	channel activation, agonist	transfected HEK293 cells	physiological divalent cations, together with: 2 mM Ca2+ and 0.5 mM Mg2+	–	Hill coefficient	1.4 ± 0.2
O=C(Nc1ccccc1OS(=O)(=O)c1ccc([N+](=O)[O-])cc1)c1ccc2ncccc2c1	P2X purinoceptor 2 (P2RX2, Homo sapiens, UniProt Q9UBL9)	calcium mobilization	MCF7 stably transfected	100 µM, together with: ATP 100 µM	–	fluorescence increase	80.8 ± 4.07%
Cc1cc(-c2cccc(-n3cc(COC(=O)[C@]4(C)C=C(C(=O)OC(C)(C)C)C(=O)CC4)nn3)c2)c(C)c2c1CNCC2	Mitogen-activated protein kinase 8 (MAPK8, Homo sapiens, UniProt P45983)	D-peptide binding, inhibitor, FP peptide displacement	–	200 µM	lower is stronger displacement	fraction bound	0.0542
Clc1ccc(C(c2c[nH]c3ccccc23)c2c[nH]c3ccccc23)cc1	NR4A1	reporter gene, NBRE reporter full-length	–	10 µM	relative to: vehicle	activation	1.39 fold
NCCCC(=O)O	Sodium- and chloride-dependent taurine transporter (SLC6A6, Homo sapiens, UniProt P31641, L306A)	binding, microscale thermophoresis	–	500 µM, room temperature, together with: 50 nM labelled protein	higher = more binding	normalised MST signal	0.319
COc1ccc(Cc2nnc(NS(=O)(=O)c3ccc(Cl)c(Cl)c3)s2)cc1	Glutathione hydrolase 1 proenzyme, without transmembrane domain (Homo sapiens, UniProt P19440)	GSH hydrolysis	–	37 °C, no inhibition up to 250 µM, together with: GSH 5-20 µM	–	Kii	> 250 µM
O=C(O)c1ccccc1Nc1cccc(C(F)(F)F)c1	Taste receptor type 2 member 14 (TAS2R14, Homo sapiens, UniProt Q9NYV8)	G-protein dissociation, TRUPATH gustducin BRET	–	300 nM, wild-type receptor, unit not given	relative to: vehicle	ΔBRET	0.00115 and 0.000881 and 0.00574 and 0.00979 and 0.0449 and 0.014 and 0.0102
O=[N+]([O-])c1cc(C(F)(F)F)ccc1NCc1ccco1	Endothelial PAS domain-containing protein 1, PAS-B domain (EPAS1, Homo sapiens, UniProt Q99814, N288Q)	ZZ-exchange NMR	–	25 °C	–	koff	2.36 ± 0.17 s⁻¹
Nc1nc2c(ncn2[C@@H]2O[C@H](COP(=O)(O)O)[C@@H](O)[C@H]2O)c(=O)[nH]1	GUK1 (Homo sapiens, UniProt Q16774)	enzyme activity, NADH-coupled	–	7.812 µM, together with: KCl 10 mM	–	reaction velocity	0.0234 µM/s and -0.000914 µM/s and 0.0122 µM/s
OC[C@H]1OC(O)[C@H](O)[C@@H](O)[C@@H]1O (stereo partly drawn)	Hexokinase-3 (HK3, Homo sapiens, UniProt P52790, N221A)	substrate inhibition	–	mutant N221A, partial substrate inhibition model, together with: ATP 20 mM	–	kcat	41 ± 25 s⁻¹
COc1cc(CNC(=O)CCCC/C=C/C(C)C)ccc1O	Transient receptor potential cation channel subfamily V member 1 (TRPV1, Homo sapiens, UniProt Q8NER1)	channel activation, FLIPR calcium	HEK293T	20 µM	higher = more activation	calcium response	35.3 a.u. and 39.3 a.u. and 45 a.u. and 24.6 a.u.
C[C@H]1O[C@@H](O[C@H]2CC[C@@]3(C)[C@@H](CC[C@]4(C)[C@@H]3C=CC3=C5CC(C)(C)CC[C@]5(CO)[C@@H](O)C[C@]34C)[C@]2(C)CO)[C@H](O)[C@@H](O[C@@H]2O[C@H](CO)[C@@H](O)[C@H](O)[C@H]2O)[C@H]1O	NAD-dependent protein deacetylase sirtuin-1 (SIRT1, Homo sapiens, UniProt Q96EB6)	binding, microscale thermophoresis	–	173 nM	–	MST normalised fluorescence	884 a.u.

For quick reference, copied from above:
Structure (SMILES)	tested on	assay	system	setting	scale	endpoint	result
[Ca]	Transient receptor potential cation channel subfamily A member 1 (TRPA1, Homo sapiens, UniProt O75762)	ion current, two-electrode voltage clamp	Xenopus oocytes	concentration not given, -80 mV, together with: extracellular Ca2+	relative to: current before Ca2+ addition	potentiation	13.8 fold change and 29.1 fold change and 20.9 fold change and 6.31 fold change and 23.6 fold change
CC1CCCN(C(=O)c2cc3ncccn3n2)C1 (stereo not drawn)	FBXW7 (Homo sapiens, UniProt Q969H0)	binding, affinity selection mass spectrometry	–	–	relative to: other proteins in batch	fold enrichment	1.23
